# Experimental data collected from several papers.
# Each line is one published result; not all experiments were run side by side. Numbers after ± are the reported error.
Structure (SMILES),tested on,assay,test system,conditions,how to read,quantity,value
Cc1noc(C)c1Cn1cc(N2C(=O)CN(Cc3cccc(OS(=O)(=O)O)c3)C2=O)cn1,,,"Sprague-Dawley rat, male","oral, 10 mg/kg of parent drug, 4 h",,plasma concentration,1910 ng/mL
O=C1C2CC3CC1CC(C(=O)N1CCN(c4ccc([N+](=O)[O-])c5ncccc45)CC1)(C3)C2,Escherichia coli,Ames test,WP2 uvrA pKM101,"0.05 µg/well, without S9 activation",,revertant colony count,25 colonies/well
CC1(C)C(=CC=C2CCCC(C=CC3=[N+](CCC[N+](C)(C)C)c4ccc(S(=O)(=O)O)cc4C3(C)C)=C2SCCOCCOCCC(=O)O)N(CCC[N+](C)(C)C)c2ccc(S(=O)(=O)O)cc21,,,"DMSO, PBS and FBS",across solvents tested,,emission maximum wavelength,807 to 834 nm
O=C(Sc1cccccc1=O)c1cccc(OC(F)(F)F)c1,HepDES19,"cell growth or viability, MTS",,72 h,,CC50,100 µM
CCCCN1C(=O)c2cccc3c(NCCCCCCN4CCOCC4)ccc(c23)C1=O,,,ethyl acetate,,,emission maximum,513 nm
Cc1cc(-c2ccc(C(=O)[C@@H]3CCCC[C@H]3C(=O)Nc3cnn4c3C(=O)NCC4)cc2)[nH]n1,,,"human, urine","oral, 200 mg, 0-48 h",relative to: dose,cumulative recovery of radioactivity,5.7%
CCCC[C@H](NC(=O)CNC(=O)CNC(=O)[C@H](CCCCNC(=O)[C@H](CC(=O)O)NC(=O)C(C)c1ccc(CC(C)C)cc1)NC(=O)CN1CCN(CC(=O)O)CCN(CC(=O)O)CCN(CC(=O)O)CC1)C(=O)N[C@H]1CC(=O)NCCCC[C@@H](C(N)=O)NC(=O)[C@H](Cc2c[nH]c3ccccc23)NC(=O)[C@H](CCCNC(=N)N)NC(=O)[C@@H](Cc2ccccc2)NC(=O)[C@H](Cc2c[nH]cn2)NC1=O (some centres unmarked) [lutetium-177 labelled],,,"C57 mouse, urine","intravenous, 0.037 MBq, 0.5 h",,excretion,43.7 ± 2.68%
CN[C@H](CC(C)C)C(=O)N[C@H]1C(=O)N[C@@H](CC(N)=O)C(=O)N[C@H]2CN[C@H]3C(=O)N[C@H](C(=O)N[C@H](C(=O)NCCCNC(=N)N)c4cc(O)cc(O)c4-c4cc3ccc4O)[C@H](O)c3ccc(c(Cl)c3)Oc3cc2cc(c3O[C@@H]2O[C@H](CO)[C@@H](O)[C@H](O)[C@H]2O[C@H]2C[C@](C)(NCc3ccc(-c4ccc(Cl)cc4)cc3)[C@H](O)[C@H](C)O2)Oc2ccc(cc2Cl)[C@H]1O,,,mouse,"intravenous, 50 mg/kg",,volume of distribution,0.24 L/kg
O=C(Nc1cnccc1-c1ccc([18F])nc1)c1ccnc(NC(=O)C2CC2)c1,,,"FVB/NJ mouse, both sexes, brain","intravenous, 40 min, together with: tariquidar 15 mg/kg iv",,SUV,0.146
CS(=O)(=O)c1cc(Cl)cc(-c2cc(Cl)c(Cl)cc2Cl)c1Cl,,,whole cow milk,500 nM nominal,,dose fraction in skim milk,7.54%
CCCCN1C(=O)c2cccc3c(NCCCCCCCCCCN4CCOCC4)ccc(c23)C1=O,,,ethylene glycol,,,emission maximum,545 nm
O=C(Nc1cnccc1-c1ccc([18F])cc1)c1ccnc(NC(=O)C2CC2)c1,,,"FVB/NJ mice (both sexes), hippocampus","intravenous, dose not given, 120 min, together with: tariquidar 15 mg/kg i.v. pre-dose",,SUV,0.25
CCOC(=O)c1c(C)cc(O)c(=O)c(O)c1O,HepDES19,"cell growth or viability, MTS",,72 h,,CC50,12.2 µM
COc1cccc(OC)c1-c1cc(C(=O)NC2(C(=O)O)C3CC4CC(C3)CC2C4)nn1-c1ccc(C(=O)N(C)CCOCCN(C)C(=O)[C@H](CCCCNC(=O)[C@H](CC(C)C)NC(=O)C2OC2C(=O)O)NC(=O)CN2CCN(CC(=O)[O-])CCN(CC(=O)[O-])CCN(CC(=O)[O-])CC2)cc1C(C)C.[177Lu+3] (mixture of isomers),,,"mouse, HT-29 xenograft, heart",4 h post injection,,tissue uptake,1.1 %ID/g
CCCCN1C(=O)c2cccc3c(NCCN4CCOCC4)ccc(c23)C1=O,,,water,pH 6.0,,emission maximum,538 nm
Cc1nc(C)c(-c2ccnc(Nc3cccc(C#N)c3)n2)s1,,,aqueous buffer,pH 7.4,,thermodynamic solubility,< 1.32 µg/mL
COc1cccc(OC)c1-c1cc(C(=O)NC2(C(=O)O)C3CC4CC(C3)CC2C4)nn1-c1ccc(C(=O)N(C)CCCN(C)CCCN(C)C(=O)[C@H](CCCCNC(=O)[C@H](CC(C)C)NC(=O)C2OC2C(=O)O)NC(=O)CN2CCN(CC(=O)[O-])CCN(CC(=O)[O-])CCN(CC(=O)[O-])CC2)cc1C(C)C.[177Lu+3] (mixture of isomers),,,mouse HT-29 xenograft,"168 h, biodistribution",relative to: tumour over spleen,tumour-to-spleen ratio,6.87
Cc1[nH]nc2c1N=C(c1ccccc1Cl)c1cnc(N3CCOCC3)cc1N2,,,"nude mouse, HCC1806 xenograft, plasma","oral, 5 mg/kg once daily",,AUC(0-last),707 ng·h/mL
COc1cccc(OC)c1-c1cc(C(=O)NC2(C(=O)O)C3CC4CC(C3)CC2C4)nn1-c1ccc(C(=O)NCCNC(=O)[C@H](CCCCNC(=O)[C@H](CC(C)C)NC(=O)C2OC2C(=O)O)NC(=O)CN2CCN(CC(=O)[O-])CCN(CC(=O)[O-])CCN(CC(=O)[O-])CC2)cc1C(C)C.[177Lu+3] (mixture of isomers),,,mouse HT-29 xenograft,"4 h, biodistribution",relative to: tumour over pancreas,tumour-to-pancreas ratio,17.5
CCCC[C@@H](CSS(=O)(=O)O)NCCC,,,"Swiss Webster mice, Schistosoma mansoni infected",100 mg/kg,relative to: vehicle control,body weight decrease,6.5%
CC(C)C[C@H](NC(=O)[C@H](CCCN)NC(=O)CNC(=O)[C@@H](NC(=O)[C@H](C)NC(=O)[C@@H]1CSCSC[C@H](NC(=O)CC[C@H](N)C(=O)O)C(=O)N[C@@H](CC(N)=O)C(=O)N[C@@H]([C@@H](C)O)C(=O)N[C@@H](C)C(=O)N[C@@H]([C@@H](C)O)C(=O)N1)[C@@H](C)O)C(=O)N[C@@H](C)C(=O)N[C@@H](CCC(=O)O)C(=O)N[C@@](C)(Cc1ccccc1)C(=O)N[C@@H](CC(C)C)C(=O)N[C@H](C(=O)N[C@@H](CCCNC(=N)N)C(=O)N[C@@H](CO)C(=O)N[C@@H](CO)C(=O)N[C@@H](CC(N)=O)C(=O)N(C)[C@@H](CC(N)=O)C(=O)N[C@@H](Cc1ccccc1)C(=O)NCC(=O)N1CCC[C@H]1C(=O)N[C@@H](CCCCNC(=O)CC[C@H](NC(=O)CC[C@H](NC(=O)CCCCCCCCCCCCCCCCCCC(=O)O)C(=O)O)C(=O)O)C(=O)N[C@@H](CC(C)C)C(=O)N1CCC[C@H]1C(=O)N1CCC[C@H]1C(=O)N[C@H](C(=O)N[C@@H](CCC(=O)O)C(=O)N[C@H](C(=O)NCC(=O)N[C@@H](CO)C(=O)N[C@@H](CC(N)=O)C(=O)N[C@H](C(=O)N[C@@H](Cc1ccc(O)cc1)C(N)=O)[C@@H](C)O)C(C)C)[C@@H](C)O)C(C)C,,,"human, plasma","subcutaneous, 4 mg, single dose, healthy volunteers",,Tmax,72 h
CC(C)[C@H](NC(=O)[C@H](Cc1ccccc1)NC(=O)[C@H](Cc1ccccc1)NC(=O)OCC1c2ccccc2-c2ccccc21)C(=O)N[C@@H](CCC(=O)O)C(=O)N[C@@H](CCC(=O)O)C(N)=O,,CD spectroscopy,peptide nanofibres,,,β-sheet content,38.9%
CC1(C)OCCc2cc(C(=O)N3CCC(c4nc(-c5ccccc5)n[nH]4)CC3)ccc21,,,DPBS,2 µM,,stability half-life,> 48 h
O=C([O-])CN1CCN(CC(=O)[O-])CCN(CC(CCCc2ccccc2[N+](=O)[O-])N(CC(=O)[O-])CC(=O)[O-])CC1.[90Y+3] (centres unmarked),,,human serum,"14 days, pH 7.0, 37 °C",,radionuclide release,< 0.5%
CCCCN1C(=O)c2cccc3c(NCCCN4CCOCC4)ccc(c23)C1=O,,,methanol,,,emission maximum,536 nm
[123I]c1ccc2nc(-c3ccc(-n4ccnn4)nc3)cn2c1,,,"male Wistar rat, stomach","intravenous, 4 MBq, 5 min",,tracer uptake,0.665 %ID/g
O=C(O)c1cccc(CN2Cc3cccc(n3)CN(Cc3cccc(C(=O)O)n3)Cc3cccc(n3)C2)n1,,"voltammetry, Nernst equation",,Mn(III) complex,,stability constant log β,4.34
OC1(C(F)(F)F)CCN(c2nc(Nc3ccnc(C(F)(F)F)c3)nc(-c3cccc(C(F)(F)F)n3)n2)C1 (centres unmarked),,,"monkey, both sexes, plasma","intravenous, 1 mg/kg",,AUC(0-inf),8910 ± 931 ng·h/mL
CNC(=O)C1CCCN(C(=O)C2CC3CCC2N3C(=O)[C@@H]2C[C@@H](O)CN2C(=O)NCc2cccc(Cl)c2F)C1 (mixture of isomers),CYP3A4 (human),"inhibitor, time-dependent inhibition",,"50 µM, preincubated without NADPH, together with: testosterone substrate",,6β-hydroxytestosterone formation,171 ng/mL
CC(C(=O)O)n1nc(Cn2cc3cc(OCC[18F])c(Cl)cc3n2)c2ccccc2c1=O (racemic),,,"rat, liver",5 min,,tracer uptake,4.68 %ID/g
C=CC(=O)Nc1cc(Nc2nccc(-c3cn(C)c4ccccc34)n2)c(OC)cc1N(C)CCNC,,storage stability,human plasma,"30 d, -80 °C, LLOQ level",,recovery,98.2%
COc1cccc(OC)c1-c1cc(C(=O)NC2(C(=O)O)C3CC4CC(C3)CC2C4)nn1-c1ccc(C(=O)N(C)CCOCCOCCN(C)C(=O)[C@H](CCCCNC(=O)[C@H](CC(C)C)NC(=O)C2OC2C(=O)O)NC(=O)CN2CCN(CC(=O)[O-])CCN(CC(=O)[O-])CCN(CC(=O)[O-])CC2)cc1C(C)C.[177Lu+3] (mixture of isomers),,,"mouse, HT-29 xenograft, lung",4 h post injection,,tissue uptake,1.54 %ID/g
CC1(N(CC(=O)O)CC(=O)O)CN(CC(=O)O)CCN(CC(=O)O)C1,,"pH-potentiometry, measured: logK2H",0.15 M NaClO4,25 °C,,protonation constant (log),6.51
CCN(CC)CC#CCNc1ccnc2cc(Cl)ccc12,Salmonella typhimurium,mini-Ames test,TA100,"500.0 µg/well, without S9",,revertants per well,18
C=C(NC(=O)c1csc(-c2nc3c(cc2O)-c2nc(cs2)C(=O)NC(C(C)O)C(=O)NC(=C(C)OC)c2nc(cs2)C(=O)NC2c4nc(cs4)C(=O)NC(COC(=O)c4c5c6c(cccc6n4O)COC(=O)C(OC4CC(C)(O)C(N(C)C)C(C)O4)C2OC5)c2nc-3cs2)n1)C(N)=O (centres unmarked),,,"Sprague-Dawley rat, female, plasma","intravenous infusion, 2 mg/kg single dose",,AUC(0-last),923 ng·h/mL
O=c1cc(/C=C/c2ccc(N(c3ccccc3)c3ccccc3)cc2)oc(/C=C/c2ccc(N(c3ccccc3)c3ccccc3)cc2)c1,,,acetonitrile,"10 µM, 298 K",,emission maximum,562 nm
C/C(N)=N/C(=N\S(=O)(=O)c1ccc(C(F)(F)F)cc1)N1C[C@H](c2ccccc2)C(c2ccc(Cl)cc2)=N1,,,"female cynomolgus monkey, plasma","intravenous, 2 mg/kg",,AUC(0-inf),18500 ng·h/mL
CN([O-])C(=O)CN1CCNCCN(CC(=O)N(C)[O-])CC1.[89Zr+4],,,"mouse, spleen","intravenous, 1 h",,tracer uptake,0.19 %ID/g

# For quick reference, copied from above:
Structure (SMILES),tested on,assay,test system,conditions,how to read,quantity,value
CNC(=O)C1CCCN(C(=O)C2CC3CCC2N3C(=O)[C@@H]2C[C@@H](O)CN2C(=O)NCc2cccc(Cl)c2F)C1 (mixture of isomers),CYP3A4 (human),"inhibitor, time-dependent inhibition",,"50 µM, preincubated without NADPH, together with: testosterone substrate",,6β-hydroxytestosterone formation,171 ng/mL
CC(C(=O)O)n1nc(Cn2cc3cc(OCC[18F])c(Cl)cc3n2)c2ccccc2c1=O (racemic),,,"rat, liver",5 min,,tracer uptake,4.68 %ID/g
C=CC(=O)Nc1cc(Nc2nccc(-c3cn(C)c4ccccc34)n2)c(OC)cc1N(C)CCNC,,storage stability,human plasma,"30 d, -80 °C, LLOQ level",,recovery,98.2%
